Experimental data from different studies.
Parts stem from different laboratories: compare values within a part only.

Series 1
Target: Interferon regulatory factor 7, full length, phosphomimetic (IRF7, Homo sapiens, UniProt Q92985, residues 1-503, S471D/S472D/S475D/S476D/S477D/S483D/S484D/S487D)
Sequence of UniProt Q92985 (whole entry, unmodified, looked up): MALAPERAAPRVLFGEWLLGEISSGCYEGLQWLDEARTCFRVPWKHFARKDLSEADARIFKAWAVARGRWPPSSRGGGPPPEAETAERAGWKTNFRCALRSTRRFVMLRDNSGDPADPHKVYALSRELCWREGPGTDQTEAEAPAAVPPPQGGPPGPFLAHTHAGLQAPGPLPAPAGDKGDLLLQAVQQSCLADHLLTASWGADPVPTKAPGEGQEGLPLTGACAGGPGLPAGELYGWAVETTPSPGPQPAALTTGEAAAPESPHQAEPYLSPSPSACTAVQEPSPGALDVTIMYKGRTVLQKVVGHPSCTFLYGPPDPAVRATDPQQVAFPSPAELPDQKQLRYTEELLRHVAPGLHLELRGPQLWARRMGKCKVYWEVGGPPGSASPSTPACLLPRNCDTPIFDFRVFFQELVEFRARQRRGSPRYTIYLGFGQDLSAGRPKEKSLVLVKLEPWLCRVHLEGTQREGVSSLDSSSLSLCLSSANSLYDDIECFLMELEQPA
Method: protein-binding microarray
Molecule type: double-stranded DNA, one strand shown
Sample: in vitro
Tested at: 2200 nM top
Notes: 60-bp whole probe
With: salmon DNA 0.4 mg/ml
Reference: random background probes
Direction: higher = stronger binding
Constant ends, left off below: GCCTAGCAC … GTCTTGATTCGCTTGACGCTGCTG
`TTAGTACTGGGGACTGGGTTAGTGCTA` — result for “fitted relative affinity”: -0.437 z-score.
For `CGACATTTTTATTTGCCTTAGTGCTAG`, “fitted relative affinity” read 1.1 z-score.
For `TCACCTCTAGGTTCTCTGACTGTGCTA`, “fitted relative affinity” read 0.72 z-score.
`TAAGGTTCCCTTTTCCTTTAGTGCTAG`: “fitted relative affinity” 3.07 z-score.
`CTCTTTCTCTGCTACCCTCTGGTGCTA` — result for “fitted relative affinity”: 2.16 z-score.

Series 2
Target: POU domain, class 5, transcription factor 1, POU domain (Pou5f1, Mus musculus, UniProt P20263, residues 131-289)
Sequence of UniProt P20263 (131-289, looked up): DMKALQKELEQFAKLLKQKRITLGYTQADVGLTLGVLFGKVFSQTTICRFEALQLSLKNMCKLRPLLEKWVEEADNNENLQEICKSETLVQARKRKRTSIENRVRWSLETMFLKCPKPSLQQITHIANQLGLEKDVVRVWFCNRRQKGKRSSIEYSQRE
Method: Spec-seq
Molecule type: double-stranded DNA, one strand shown
Sample: in vitro
Tested at: not given
Notes: whole probe, mean of replicates
Reference: not given
Direction: lower = stronger binding
Constant ends, left off below: GAGTCGTCTCGTCAGCAC … CCGTAGAGCACTCAGGTC
Under “relative binding energy”, `ACCCTAAT` is recorded as 0.71 ln ratio.
Under “relative binding energy”, `ATGCTGTG` is recorded as 0.883 ln ratio.
For `ATGATGAT`, “relative binding energy” read 0.301 ln ratio.
Under “relative binding energy”, `ACCTTAAT` is recorded as 0.612 ln ratio.
`CAGATAAT`: “relative binding energy” 0.733 ln ratio.
`ATGTTCAT`: “relative binding energy” 0.507 ln ratio.

Series 3
Target: Centromere-binding protein 1, full length, His-tagged (CBF1, Saccharomyces cerevisiae, UniProt P17106, residues 1-351)
Sequence of UniProt P17106 (whole entry, looked up): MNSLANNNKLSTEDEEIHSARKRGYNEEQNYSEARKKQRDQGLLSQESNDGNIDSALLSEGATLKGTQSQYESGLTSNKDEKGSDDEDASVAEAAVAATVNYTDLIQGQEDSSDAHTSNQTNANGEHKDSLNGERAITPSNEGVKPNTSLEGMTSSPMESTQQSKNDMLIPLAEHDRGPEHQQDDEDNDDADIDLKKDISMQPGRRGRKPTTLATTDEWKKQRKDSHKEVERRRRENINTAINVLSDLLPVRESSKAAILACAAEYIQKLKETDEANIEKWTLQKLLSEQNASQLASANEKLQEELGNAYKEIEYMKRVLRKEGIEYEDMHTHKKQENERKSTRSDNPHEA
Method: competition protein-binding microarray
Molecule type: double-stranded DNA, one strand shown
Sample: in vitro
Tested at: 2 µM
Notes: whole 60-bp probe, lowest competitor level
With: Pho4 competitor, 0.05 µM
Direction: higher = stronger binding
The fluorescence intensity of `GTCTTGTCTCATTGTACGGTGGGTGTCCCCACTTCAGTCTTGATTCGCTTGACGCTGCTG` is reported as 87.7 a.u.
With `TTGACAATGTCGAGTCACGTGCAAAACAATTCAAGTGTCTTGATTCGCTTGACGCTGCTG` the fluorescence intensity was 17500 a.u.
`TCAGCTCTTAGATGTAATGTGACGGCAGCCATTTTTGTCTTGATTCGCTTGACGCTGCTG` has a fluorescence intensity of 87.3 a.u.
The fluorescence intensity of `AAATTACTAAGTTGCCGAGTGGGTGACGCCGTATGAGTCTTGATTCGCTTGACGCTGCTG` is reported as 65.7 a.u.
With `GTTGAGCGAACGCGACTCGTGGGACGGCCACTTCGCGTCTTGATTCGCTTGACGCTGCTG` the fluorescence intensity was 61.2 a.u.
For `GACACGACTGACAAACAAAAGTTAATATATATTACAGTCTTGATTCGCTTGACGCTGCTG`, the fluorescence intensity was 111 a.u.

Further values, each from its own experiment
`PhoQ, residues 284 288 289 292 302 303 AEGLLW` gave a fold induction of 4.92 (PhoP, residues 12 14 15 18 19 MHTVL (Escherichia coli, UniProt P23836); Sort-seq, refers to: YFP reporter; E. coli; PhoQ-PhoP variant library, with: 10 µM Mg2+; reference: high Mg2+ state, higher = stronger signaling).
